{"data": "Measured values collected from several papers", "note": "Each numbered part is a random draw from the data of one study; scales do not carry over between parts."}
{"data": "Set 1", "target": "RNA binding protein fox-1 homolog 2, RRM domain, GST-SBP tag (RBFOX2, Homo sapiens, UniProt O43251-10, residues 100-194)", "technique": "RNA Bind-n-Seq", "molecule type": "RNA", "medium": "in vitro", "concentration": "365 nM", "setting": "natural RNA segment, single round, ends assumed", "baseline": "no-protein control", "direction": "higher = stronger binding", "Residues (chain)": "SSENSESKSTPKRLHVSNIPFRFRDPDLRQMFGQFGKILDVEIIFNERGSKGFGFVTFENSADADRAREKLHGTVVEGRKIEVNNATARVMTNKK"}
{"Strand": "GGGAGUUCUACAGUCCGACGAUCCCAUGGAAAGGGCGGAACGAUUCUCCAGGACAGCCAGCUCUUUCGUUGAAGAUCUAUCUAUGCAUUUUUUUACACUUACACAUAAACUGGUAUUUUCGAACAAUAGGAAAUGGAAUUCUCGGGUGCCAA", "RBNS enrichment (R)": 0.596}
{"Strand": "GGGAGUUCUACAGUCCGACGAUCGUCAACAGUGUGGUUAUGACCUUUAUUUAUAUAAAAACCAAAUAUUUAGUCAAUUUACCGUGUCUUAAUUUAAUCUUUGUACACCUUCCAUUUUUAAGUGCUUAAAUGAGUGGAAUUCUCGGGUGCCAA", "RBNS enrichment (R)": 0.956}
{"Strand": "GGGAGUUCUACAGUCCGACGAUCUGAGUAAAUGUAUCCAAGAGACACAUCUAGUAGGGAGUUCAGUUUUAAGAUAGUUUGGCUCCAGAGUUGGUGUUUUUAACCACUGUGUUUUCUCACUUUUGUUCAGUGUUUGGAAUUCUCGGGUGCCAA", "RBNS enrichment (R)": 0.932}
{"Strand": "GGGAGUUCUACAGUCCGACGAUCCUCCAGAGCAGGUGUUGUGCCUGGAGCUGCUCUCCUGGCCUCCUUGGAUUUAUCGCAAAAACUGAAGGUUUGCGCAAGAGACGAGGACAGCGGAAAGUGGACCUGCCAGGUGGAAUUCUCGGGUGCCAA", "RBNS enrichment (R)": 0.645}
{"Strand": "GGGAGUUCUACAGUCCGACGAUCUCUGAGAAGUUGUGAAGGGUCCAGAGCCAGUCUGCUUUAGAGUCCAAUAAAGUGUAGGUGUGGCAAUGCCUGGGUCUCUGUCUUCCUUUCUAAAAUUUUCAAGUGUUUCAUGGAAUUCUCGGGUGCCAA", "RBNS enrichment (R)": 1.44}
{"Strand": "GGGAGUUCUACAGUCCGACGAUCCCUCUCUCUCCUCCUUUGACCUUCUCCUCGACCAGCCAUCAUGACAUUUACCAUGAAUUUACUUCCUCCCAAGAGUUUGGACUGCCCGUCAGAUUGUUGCUGCACAUAGUUGGAAUUCUCGGGUGCCAA", "RBNS enrichment (R)": 1.59}
{"Strand": "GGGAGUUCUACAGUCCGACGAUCUUCGAAGAUGGGUUGUGGCUGGGUAUUCCCUCCCAUGGUGUUUCCUCUGGGAUGCUCUUCAUUAUCUCAAUGCCUGUGCCAUGAAGAUAGAAAACUGUAAGCUAACAUUUUGGAAUUCUCGGGUGCCAA", "RBNS enrichment (R)": 0.629}
{"Strand": "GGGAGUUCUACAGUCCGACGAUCGAACCACAGACCACCAAUGUUGAAGUCAGAAUGGAAAGUGUGCCAGCAAGGAUUUCUGAACACUAAAUCCAACGAGCCUUCACAGGGAAAGGAUAUUUGAGCAGAAUUCUUGGAAUUCUCGGGUGCCAA", "RBNS enrichment (R)": 0.425}
{"Strand": "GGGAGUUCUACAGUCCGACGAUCCACUUAAACUAAAGGCUAAGAAUAUAGGCUUGAUGGGAAAUUGAAGGUAGGCUGAGUAUUGGGAAUCCAAAUUGAAUUUUGAUUCUCCUUGGCAGUGAACUACUUUGAAGUGGAAUUCUCGGGUGCCAA", "RBNS enrichment (R)": 0.251}
{"Strand": "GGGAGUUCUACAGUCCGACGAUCUGUUAUUUUUAAAAUGAAUAAUUGAUUUCUUGAUAGGUGUUUAAUAUUUCUUCCCUCACUGCUGAUUCUUAGAUAGAAACCAUUCUUUAUAUUUGAUAGACUGCUUUCAGUGGAAUUCUCGGGUGCCAA", "RBNS enrichment (R)": 0.723}
{"Strand": "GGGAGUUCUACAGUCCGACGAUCCUGCGAUCCUUCCCACCGUCAGCCUUUGUUUCUCAUCCUCACCUCCAAAGAUGGGAUUAUUAAUCCAACUCUAGAAAGAGUCCAAAUCUUCAGCCCGUGUCUCAUACACUUGGAAUUCUCGGGUGCCAA", "RBNS enrichment (R)": 0.503}
{"Strand": "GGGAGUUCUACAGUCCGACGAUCAGGGGCUCUGGGCAUGCUGUGCCUGAGCUCCCUCAAAUGCCCAACCUAAGGCUUUGUGGGUAAGAUUACUUGCCACCUGCUUACUCUUAUGAAAUAGUCCAGUGCUCAUAUGGAAUUCUCGGGUGCCAA", "RBNS enrichment (R)": 0.366}
{"data": "Set 2", "target": "Histone acetyltransferase KAT6A, winged helix 1, GST fusion (KAT6A, Homo sapiens, UniProt Q92794, residues 1-85)", "technique": "protein binding microarray", "molecule type": "double-stranded DNA, one strand shown", "medium": "in vitro", "concentration": "not given", "setting": "8-mer, flanks averaged, mean of 2 arrays, mostly near background", "baseline": "not given", "direction": "higher = stronger binding", "Residues (chain)": "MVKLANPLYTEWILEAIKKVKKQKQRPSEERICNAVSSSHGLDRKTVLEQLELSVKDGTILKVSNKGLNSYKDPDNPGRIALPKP"}
{"Strand": "CTTCAAGA", "E-score": -0.19}
{"Strand": "GGGTGGAA", "E-score": -0.0723}
{"Strand": "AGAAACGC", "E-score": 0.149}
{"Strand": "AGGGTGCG", "E-score": 0.209}
{"Strand": "AAATTGAT", "E-score": -0.108}
{"Strand": "CTCCGGTA", "E-score": 0.0824}
{"Strand": "AGCTCAAT", "E-score": -0.13}
{"Strand": "GCTAATCA", "E-score": 0.0582}
{"Strand": "ACAATGAA", "E-score": -0.299}
{"Strand": "CGTACCTC", "E-score": -0.0294}
{"Strand": "ATATCGGA", "E-score": -0.0371}
{"Strand": "AAGCGGTC", "E-score": 0.247}
{"Strand": "CAATCGCG", "E-score": 0.183}
{"Strand": "CGCACCAC", "E-score": 0.0923}
{"Strand": "GGGGGCTA", "E-score": -0.0329}
{"Strand": "AGCATGAA", "E-score": -0.17}
{"Strand": "GTCATAAC", "E-score": -0.102}
{"Strand": "GACCAGGA", "E-score": -0.28}
{"Strand": "TCATAACA", "E-score": -0.214}
{"Strand": "AACGTTTA", "E-score": -0.107}
{"Strand": "CTCTCAAC", "E-score": -0.0816}
{"data": "Set 3", "target": "Centromere-binding protein 1, full length, N-terminal tag (CBF1, Saccharomyces cerevisiae, UniProt P17106, residues 1-351)", "technique": "protein-binding microarray", "molecule type": "double-stranded DNA, one strand shown", "medium": "in vitro", "concentration": "0.8 µM", "setting": "whole 60-bp probe, no competitor", "direction": "higher = stronger binding", "UniProt P17106, sequence (whole entry, looked up)": "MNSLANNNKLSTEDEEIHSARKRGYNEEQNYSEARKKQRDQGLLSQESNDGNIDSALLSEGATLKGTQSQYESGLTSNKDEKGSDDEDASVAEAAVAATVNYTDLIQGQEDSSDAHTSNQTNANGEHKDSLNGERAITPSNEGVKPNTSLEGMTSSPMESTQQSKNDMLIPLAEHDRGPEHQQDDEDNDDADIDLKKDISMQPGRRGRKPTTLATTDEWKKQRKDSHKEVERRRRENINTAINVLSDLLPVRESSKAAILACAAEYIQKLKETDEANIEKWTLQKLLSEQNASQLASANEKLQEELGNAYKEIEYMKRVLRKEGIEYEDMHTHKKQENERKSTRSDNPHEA"}
{"Strand": "CTATTACTTGGCAAACACGTTGGTTGGGAAAAGTTCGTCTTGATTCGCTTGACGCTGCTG", "fluorescence intensity [a.u.]": 621}
{"Strand": "GAAGCAGTGAAACCTCGTGGGAGAAAGCCGGTTTAGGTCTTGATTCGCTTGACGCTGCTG", "fluorescence intensity [a.u.]": 549}
{"Strand": "CTAAGCAAGAGGTGACACATAAACATAGTTTTCTTCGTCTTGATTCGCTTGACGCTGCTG", "fluorescence intensity [a.u.]": 504}
{"Strand": "CTAGAGTTTGGTTGCCACATGTACGCTTAGGACTTCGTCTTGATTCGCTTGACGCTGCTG", "fluorescence intensity [a.u.]": 629}
{"Strand": "CCTAACTACTATAAAGGTATCACATAGCTTCGTACAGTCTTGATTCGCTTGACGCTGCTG", "fluorescence intensity [a.u.]": 558}
{"Strand": "CCTAACTACTATAGTATCGTGACATAGCTTCGTACAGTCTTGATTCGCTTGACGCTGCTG", "fluorescence intensity [a.u.]": 1300}
{"Strand": "GAAAATAGGCACAATCACACTTAAACGTATACGTAGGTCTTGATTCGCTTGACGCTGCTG", "fluorescence intensity [a.u.]": 529}
{"Strand": "CTAATTATCTTCAATGTCATCACGTACTTAATTTTCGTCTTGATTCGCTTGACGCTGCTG", "fluorescence intensity [a.u.]": 785}
{"Strand": "GAATATCATATTTTCCACGTGAGGGAGCTCAAATAGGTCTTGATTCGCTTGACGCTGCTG", "fluorescence intensity [a.u.]": 2440}
{"Strand": "CTACAGTGTACTCTTCACGATATTTTGCATTTTTTCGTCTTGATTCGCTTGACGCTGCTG", "fluorescence intensity [a.u.]": 547}
{"Strand": "CTACAATTATCAAACCACATGAAACTTTTTTAATTCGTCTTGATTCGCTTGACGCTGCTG", "fluorescence intensity [a.u.]": 672}
{"Strand": "CTACCAAAGAAAACTAACGTGGACCGCTTTTAGTTCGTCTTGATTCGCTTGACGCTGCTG", "fluorescence intensity [a.u.]": 554}
{"Strand": "GAATAGTTTTGAGTTCACCTGTTGGTGCAGTATTAGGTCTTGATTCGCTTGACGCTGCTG", "fluorescence intensity [a.u.]": 515}
{"Strand": "CTACAAATAATTAAGCATGTGGAAAAAGAAGGGTTCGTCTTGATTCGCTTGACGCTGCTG", "fluorescence intensity [a.u.]": 659}
{"Strand": "GAAGGGTCAACAGATCACGAGCCAATTTGAATTTAGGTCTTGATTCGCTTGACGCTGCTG", "fluorescence intensity [a.u.]": 1880}
{"data": "Set 4", "target": "Sal-like protein 4, full length isoform A (SALL4, Homo sapiens, UniProt Q9UJQ4, residues 1-1053)", "technique": "universal PBM", "molecule type": "double-stranded DNA, one strand shown", "medium": "in vitro", "concentration": "600 nM", "setting": "8-mer, flanks averaged, mean of replicates", "direction": "higher = stronger binding", "UniProt Q9UJQ4, sequence (whole entry, looked up)": "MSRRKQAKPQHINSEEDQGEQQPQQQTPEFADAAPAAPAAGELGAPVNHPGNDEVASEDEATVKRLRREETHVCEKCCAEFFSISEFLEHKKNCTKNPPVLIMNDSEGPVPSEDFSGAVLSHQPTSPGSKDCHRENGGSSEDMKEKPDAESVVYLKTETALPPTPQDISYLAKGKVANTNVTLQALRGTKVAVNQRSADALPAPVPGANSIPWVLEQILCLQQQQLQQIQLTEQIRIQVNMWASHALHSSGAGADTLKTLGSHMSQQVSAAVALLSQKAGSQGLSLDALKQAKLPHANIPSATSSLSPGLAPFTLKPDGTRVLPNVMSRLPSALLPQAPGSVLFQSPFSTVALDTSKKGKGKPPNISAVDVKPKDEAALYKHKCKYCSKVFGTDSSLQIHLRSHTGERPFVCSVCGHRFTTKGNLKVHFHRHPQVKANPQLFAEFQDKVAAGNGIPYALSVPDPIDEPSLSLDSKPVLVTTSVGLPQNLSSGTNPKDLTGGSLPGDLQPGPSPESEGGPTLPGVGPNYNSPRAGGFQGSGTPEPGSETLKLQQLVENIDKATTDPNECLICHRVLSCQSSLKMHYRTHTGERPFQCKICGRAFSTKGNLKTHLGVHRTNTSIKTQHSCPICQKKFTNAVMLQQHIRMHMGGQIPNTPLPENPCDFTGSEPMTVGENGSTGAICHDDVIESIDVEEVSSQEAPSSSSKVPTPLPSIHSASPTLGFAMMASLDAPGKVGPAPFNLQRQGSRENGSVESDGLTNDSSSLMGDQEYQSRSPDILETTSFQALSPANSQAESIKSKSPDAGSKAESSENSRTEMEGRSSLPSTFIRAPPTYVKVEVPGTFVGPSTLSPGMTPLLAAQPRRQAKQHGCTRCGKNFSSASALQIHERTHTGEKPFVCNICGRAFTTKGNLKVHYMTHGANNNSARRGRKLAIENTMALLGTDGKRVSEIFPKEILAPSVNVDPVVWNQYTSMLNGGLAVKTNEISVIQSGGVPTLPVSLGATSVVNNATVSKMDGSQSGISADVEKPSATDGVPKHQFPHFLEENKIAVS"}
{"Strand": "CAATGGTG", "E-score": -0.174}
{"Strand": "CGACTTGA", "E-score": -0.00328}
{"Strand": "GGGACCCC", "E-score": -0.428}
{"Strand": "CCGCGGTC", "E-score": -0.427}
{"Strand": "CAAATAAA", "E-score": 0.259}
{"Strand": "CAGAAACA", "E-score": 0.0791}
{"Strand": "CCGTTCGA", "E-score": -0.0128}
{"Strand": "CTCACTGC", "E-score": -0.12}
{"Strand": "AGAACCGA", "E-score": -0.167}
{"Strand": "GGACTAAA", "E-score": -0.049}
{"Strand": "AATGTCAT", "E-score": 0.167}
{"Strand": "TGGATGAA", "E-score": 0.053}
{"Strand": "CCATAGTC", "E-score": 0.0239}
{"Strand": "GCCCTGCA", "E-score": -0.289}
{"Strand": "ACCCAAGG", "E-score": -0.0391}
{"Strand": "ATAAGAAA", "E-score": 0.351}
{"Strand": "ATCCGTCC", "E-score": -0.0673}
{"Strand": "ACCAAAGA", "E-score": 0.235}
{"Strand": "AACCAGAG", "E-score": -0.075}
{"Strand": "TACCACTA", "E-score": 0.0729}
{"Strand": "ACTAACTC", "E-score": 0.0772}
{"Strand": "AGTCTGTC", "E-score": -0.0829}
{"Strand": "GTGCTCTA", "E-score": -0.204}
{"Strand": "TCAAAAAA", "E-score": 0.266}
{"Strand": "ATCTTAAT", "E-score": 0.258}
{"note": "For quick reference, copied from above (set 3):"}
{"Strand": "GAAAATAGGCACAATCACACTTAAACGTATACGTAGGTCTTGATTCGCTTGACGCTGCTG", "fluorescence intensity [a.u.]": 529}
{"Strand": "CTAATTATCTTCAATGTCATCACGTACTTAATTTTCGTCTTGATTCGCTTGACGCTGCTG", "fluorescence intensity [a.u.]": 785}
{"Strand": "GAATATCATATTTTCCACGTGAGGGAGCTCAAATAGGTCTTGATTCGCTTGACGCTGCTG", "fluorescence intensity [a.u.]": 2440}
{"Strand": "CTACAGTGTACTCTTCACGATATTTTGCATTTTTTCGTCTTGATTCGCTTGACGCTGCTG", "fluorescence intensity [a.u.]": 547}
{"Strand": "CTACAATTATCAAACCACATGAAACTTTTTTAATTCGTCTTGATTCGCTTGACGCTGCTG", "fluorescence intensity [a.u.]": 672}
{"Strand": "CTACCAAAGAAAACTAACGTGGACCGCTTTTAGTTCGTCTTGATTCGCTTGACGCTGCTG", "fluorescence intensity [a.u.]": 554}
{"Strand": "GAATAGTTTTGAGTTCACCTGTTGGTGCAGTATTAGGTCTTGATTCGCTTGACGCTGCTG", "fluorescence intensity [a.u.]": 515}
{"Strand": "CTACAAATAATTAAGCATGTGGAAAAAGAAGGGTTCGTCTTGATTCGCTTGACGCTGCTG", "fluorescence intensity [a.u.]": 659}
